Published values pooled from the literature.
Lines come from different studies, so protocols differ. Numbers after ± are the reported error.
Sequence of UniProt P42336 (whole entry, unmodified, looked up): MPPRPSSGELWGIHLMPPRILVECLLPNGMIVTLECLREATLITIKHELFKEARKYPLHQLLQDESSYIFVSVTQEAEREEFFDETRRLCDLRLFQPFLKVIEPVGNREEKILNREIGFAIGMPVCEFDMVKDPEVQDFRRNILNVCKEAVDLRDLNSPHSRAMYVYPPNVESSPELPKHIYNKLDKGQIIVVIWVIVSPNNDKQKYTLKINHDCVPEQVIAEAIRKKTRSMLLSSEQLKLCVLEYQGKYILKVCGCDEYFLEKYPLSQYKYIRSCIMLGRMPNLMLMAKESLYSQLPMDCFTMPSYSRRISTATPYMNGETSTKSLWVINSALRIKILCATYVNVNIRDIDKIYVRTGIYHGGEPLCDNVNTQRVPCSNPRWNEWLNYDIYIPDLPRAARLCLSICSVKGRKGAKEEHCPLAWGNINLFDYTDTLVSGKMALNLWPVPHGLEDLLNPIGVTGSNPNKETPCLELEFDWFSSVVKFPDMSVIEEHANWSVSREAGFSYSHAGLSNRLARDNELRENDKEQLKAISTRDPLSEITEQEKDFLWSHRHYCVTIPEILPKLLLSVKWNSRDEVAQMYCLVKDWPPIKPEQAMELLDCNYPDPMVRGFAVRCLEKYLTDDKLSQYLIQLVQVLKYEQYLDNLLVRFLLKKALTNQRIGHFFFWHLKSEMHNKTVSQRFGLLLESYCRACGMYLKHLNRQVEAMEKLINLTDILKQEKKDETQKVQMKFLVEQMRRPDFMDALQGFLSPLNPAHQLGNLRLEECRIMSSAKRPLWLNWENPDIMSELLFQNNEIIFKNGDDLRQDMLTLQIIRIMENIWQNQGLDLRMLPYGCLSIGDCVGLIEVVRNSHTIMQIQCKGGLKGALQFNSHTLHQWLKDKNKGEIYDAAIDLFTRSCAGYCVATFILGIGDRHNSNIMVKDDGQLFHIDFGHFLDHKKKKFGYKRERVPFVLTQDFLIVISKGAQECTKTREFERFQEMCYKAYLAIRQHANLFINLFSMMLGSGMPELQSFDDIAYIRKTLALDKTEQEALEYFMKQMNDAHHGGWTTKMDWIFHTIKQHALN

Compound	tested on	assay	test system	setting	quantity	result
CC[C@H](C)[C@H](NC(=O)[C@H](CCCCN)NC(=O)CNC(=O)[C@H](CC(C)C)NC(=O)[C@H](Cc1ccccc1)NC(=O)[C@H](CCCCN)NC(=O)[C@H](CO)NC(=O)[C@H](Cc1ccccc1)NC(=O)[C@H](Cc1c[nH]c2ccccc12)NC(=O)[C@H](CCC(N)=O)NC(=O)[C@@H](NC(=O)[C@H](Cc1ccccc1)NC(=O)CCCCCNC(=O)CN1CCN(CC(=O)O)CCN(CC(=O)O)CCN(CC(=O)O)CC1)C(C)C)C(=O)N[C@@H](CCC(=O)O)C(=O)N1CCC[C@H]1C(=O)N[C@@H](CC(=O)O)C(=O)N[C@H](C(=O)N[C@@H](CO)C(=O)N[C@@H](CCC(N)=O)C(=O)N[C@H](C(=O)N[C@@H](CCC(N)=O)C(=O)N[C@@H](CC(=O)O)C(=O)N1CCC[C@H]1C(=O)N[C@@H](CC(N)=O)C(=O)N[C@@H](CC(=O)O)C(=O)N[C@@H](CCC(N)=O)C(=O)N[C@@H](Cc1ccc(O)cc1)C(=O)N[C@@H](CCC(=O)O)C(=O)N1CCC[C@H]1C(=O)N[C@@H](Cc1ccccc1)C(=O)O)C(C)C)C(C)C [copper-64 labelled]			C57BL/6 mice, small intestine	vehicle, intratracheal instillation	tissue uptake	4.49 ± 0.5 %ID/g
CN1Cc2cc(Cl)ccc2-n2c(nnc2C2CCN(c3cccc([18F])n3)CC2)C1			C57BL/6 mouse male, stomach	intravenous, 3.7 MBq, 1 min	tissue uptake	3.93 ± 1.65 %ID/g
C[C@H](O)[C@@H](NC(=O)[C@H]1CCCN1C(=O)[C@@H](CCCCN)NC(=O)[C@@H](CO)NC(=O)[C@@H](Cc1ccc(O)cc1)NC(=O)[C@@H](CC(N)=O)NC(=O)CCOCCOCCOCCNC(=O)CN1CCN(CC(=O)O)CCN(CC(=O)O)CCN(CC(=O)O)CC1)C(=O)N[C@H](CC(=O)O)C(=O)N[C@H](CCCNC(=N)N)C(=O)N[C@H](CCC(N)=O)C(=O)N[C@H](Cc1ccc(O)cc1)C(=O)N[C@H](Cc1c[nH]cn1)C(=O)N[C@H](Cc1ccccc1)C(N)=O [copper-64 labelled]			C57BL/6J mice, pancreas	intravenous, 1.85 MBq, 1 h, radiolabelled	tissue uptake	0.22 ± 0.05 %ID/g
O=C1NC2(CC2)COc2ncc(F)cc2[C@H]2COCCN2c2ccn3ncc1c3n2			Sprague-Dawley rat, male, serum	oral, 20 mg/kg/day, end of recovery, 4-week subacute toxicity	serum hepatic lipase activity	3.1 ± 0.7 U/L
CCCC[C@H]1C(=O)N(C)[C@@H](CCCC)C(=O)N[C@@H](CCCNC(=O)CN2CCN(CC(=O)O)CCN(CC(=O)O)CCN(CC(=O)O)CC2)C(=O)N[C@H](C(=O)NCC(N)=O)CSCC(=O)N[C@@H](Cc2ccc(O)cc2)C(=O)N(C)[C@@H](C)C(=O)N[C@@H](CC(N)=O)C(=O)N2CCC[C@H]2C(=O)N[C@@H](Cc2c[nH]cn2)C(=O)N[C@@H](CC(C)C)C(=O)N(C)CC(=O)N[C@@H](Cc2c[nH]c3ccccc23)C(=O)N[C@@H](CO)C(=O)N[C@@H](Cc2c[nH]c3ccccc23)C(=O)N1C [gallium-68 labelled]			NOD/SCID mice with CHO-hPD-L1 xenograft, muscle	30 min post injection	tissue uptake	0.89 ± 0.05 %ID/g
CC(C)C[C@@H](NC(=O)[C@@H](CCCNC(=N)N)NC(=O)[C@@H](Cc1c[nH]cn1)NC(=O)[C@@H](Cc1c[nH]c2ccccc12)NC(=O)[C@@H](Cc1c[nH]cn1)NC(=O)[C@@H](Cc1ccccc1)NC(=O)[C@H](NC(=O)[C@@H](Cc1ccc(O)cc1)NC(=O)CNC(=O)CNC(=O)CCOCCOCCOCCNC(=O)CN1CCN(CC(=O)O)CCN(CC(=O)O)CC1)[C@H](C)O)C(=O)N[C@H](CC(N)=O)C(=O)N1CCC[C@@H]1C(=O)O [gallium-68 labelled]		gamma counting	C57BL/6 mice, male, lung	intravenous, 1.85 MBq, 60 min	tissue uptake	0.94 ± 0.13 %ID/g
CC[C@H](C)[C@H](NC(=O)[C@H](CCCNC(=N)N)NC(=O)[C@H](CCCCN)NC(=O)[C@H](Cc1ccc(O)cc1)NC(=O)[C@H](CC(=O)O)NC(=O)[C@H](C)NC(=O)CNC(=O)CCOCCOCCOCCNC(=O)CN1CCN(CC(=O)O)CCN(CC(=O)O)CCN(CC(=O)O)CC1)C(=O)N[C@H](C(=O)N[C@@H](CC(C)C)C(=O)N[C@@H](CCCCN)C(=O)N[C@H](C(=O)N[C@@H](CC(N)=O)C(N)=O)C(C)C)[C@@H](C)O [copper-64 labelled]		ex vivo gamma counting	male C57BL/6J mouse, B16-F10 tumour, intestinal lymph node	intravenous, 1.85 MBq, 100 min	tissue uptake	0.404 ± 0.127 %ID/g
CC(C)(C)C(=O)OCOP(=O)(OCOC(=O)C(C)(C)C)C1CCCN(O)C1=O (stereo not drawn)	Malme-3M				TGI	5.81 µM
CSCC[C@H](NC(=O)CNC(=O)[C@H](CCCCN)NC(=O)[C@H](CC(C)C)NC(=O)[C@@H]1CCCN1C(=O)[C@H](CO)NC(=O)[C@H](Cc1c[nH]cn1)NC(=O)[C@H](Cc1c[nH]c2ccccc12)NC(=O)[C@H](CCCNC(=N)N)NC(=O)[C@H](CC(C)C)NC(=O)[C@H](CCCNC(=N)N)NC(=O)[C@H](Cc1c[nH]c2ccccc12)NC(=O)[C@H](CS)NC(=O)CCCCCNC(=O)CN1CCN(CC(=O)O)CCN(CC(=O)O)CCN(CC(=O)O)CC1)C(=O)O [copper-64 labelled]		ex vivo biodistribution	C57BL/6J mice bearing B16-F10 tumours, heart	intravenous, 1.85 MBq, 0.5 h	tissue uptake	2.2 %ID/g
CC[C@H](C)[C@H](NC(=O)[C@H](CCCNC(=N)N)NC(=O)[C@H](CCCCN)NC(=O)[C@H](Cc1ccc(O)cc1)NC(=O)[C@H](CC(=O)O)NC(=O)[C@H](C)NC(=O)CNC(=O)CCOCCOCCOCCNC(=O)CN1CCN(CC(=O)O)CCN(CC(=O)O)CCN(CC(=O)O)CC1)C(=O)N[C@H](C(=O)N[C@H](C(=O)N[C@@H](CCCCN)C(=O)N[C@H](C(=O)N[C@@H](CC(N)=O)C(N)=O)C(C)C)C(C)C)[C@@H](C)O [copper-64 labelled]		ex vivo gamma counting	male C57BL/6J mouse, B16-F10 tumour, B16-F10 tumour	intravenous, 1.85 MBq, 100 min	tissue uptake	1.49 ± 0.058 %ID/g
Cc1nc2cccc(OCC(C)(C)C(=O)NC(C)C)c2c(N)c1C(=O)[O-].[Na+]	Salmonella typhimurium	Ames preincubation	TA98	0.80 mg/plate, together with: with rat liver S9	revertant colonies	40 ± 3 colonies/plate
CS(C)(=O)=Nc1ccc(-c2ccc(-c3nc4cc(O[C@@H]5CO[C@H]6[C@@H]5OC[C@H]6O)[nH]c4cc3F)cc2)cc1	Phosphatidylinositol 4,5-bisphosphate 3-kinase catalytic subunit alpha isoform, with p85 alpha (PIK3CA, Homo sapiens, UniProt P42336, E545K)	kinase activity		10 µM	inhibition	-2%

A few entries again:
Compound	tested on	assay	test system	setting	quantity	result
CS(C)(=O)=Nc1ccc(-c2ccc(-c3nc4cc(O[C@@H]5CO[C@H]6[C@@H]5OC[C@H]6O)[nH]c4cc3F)cc2)cc1	Phosphatidylinositol 4,5-bisphosphate 3-kinase catalytic subunit alpha isoform, with p85 alpha (PIK3CA, Homo sapiens, UniProt P42336, E545K)	kinase activity		10 µM	inhibition	-2%
